Results collected from several papers.
Each line is one published result; not all experiments were run side by side. Numbers after ± are the reported error.
YWHAZ: 14-3-3 protein zeta/delta (YWHAZ, Homo sapiens, UniProt P63104)
UniProt P63104, sequence (whole entry, looked up): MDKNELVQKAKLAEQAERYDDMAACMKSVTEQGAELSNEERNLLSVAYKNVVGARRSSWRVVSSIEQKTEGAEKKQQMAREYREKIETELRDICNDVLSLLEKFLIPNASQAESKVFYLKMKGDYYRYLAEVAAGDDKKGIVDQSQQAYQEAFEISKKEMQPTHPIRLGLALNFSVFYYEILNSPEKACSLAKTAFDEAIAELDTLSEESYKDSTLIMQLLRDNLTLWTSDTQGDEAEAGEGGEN
UniProt Q05097, sequence (whole entry, looked up): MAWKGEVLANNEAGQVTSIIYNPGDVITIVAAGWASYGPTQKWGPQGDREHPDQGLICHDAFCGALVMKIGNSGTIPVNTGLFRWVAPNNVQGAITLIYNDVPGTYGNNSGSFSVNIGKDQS
UniProt Q39204, sequence (whole entry, looked up): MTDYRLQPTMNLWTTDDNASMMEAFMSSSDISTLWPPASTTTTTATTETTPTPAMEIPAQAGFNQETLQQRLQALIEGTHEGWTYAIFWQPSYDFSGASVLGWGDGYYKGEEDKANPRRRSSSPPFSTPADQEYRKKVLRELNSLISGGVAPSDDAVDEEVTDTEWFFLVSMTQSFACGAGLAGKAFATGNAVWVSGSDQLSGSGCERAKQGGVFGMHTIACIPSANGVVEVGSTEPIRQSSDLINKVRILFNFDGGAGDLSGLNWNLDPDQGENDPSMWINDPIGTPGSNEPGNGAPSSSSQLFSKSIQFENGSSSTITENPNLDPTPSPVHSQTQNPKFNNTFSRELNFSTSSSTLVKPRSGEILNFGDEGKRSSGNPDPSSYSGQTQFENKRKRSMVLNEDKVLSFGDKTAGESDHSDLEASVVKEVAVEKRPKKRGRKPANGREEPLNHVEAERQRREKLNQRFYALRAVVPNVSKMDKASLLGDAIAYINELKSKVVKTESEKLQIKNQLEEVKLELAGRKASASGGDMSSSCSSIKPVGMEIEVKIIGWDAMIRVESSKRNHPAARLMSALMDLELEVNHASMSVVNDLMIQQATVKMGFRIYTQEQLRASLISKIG
UniProt P27017, sequence (whole entry, looked up): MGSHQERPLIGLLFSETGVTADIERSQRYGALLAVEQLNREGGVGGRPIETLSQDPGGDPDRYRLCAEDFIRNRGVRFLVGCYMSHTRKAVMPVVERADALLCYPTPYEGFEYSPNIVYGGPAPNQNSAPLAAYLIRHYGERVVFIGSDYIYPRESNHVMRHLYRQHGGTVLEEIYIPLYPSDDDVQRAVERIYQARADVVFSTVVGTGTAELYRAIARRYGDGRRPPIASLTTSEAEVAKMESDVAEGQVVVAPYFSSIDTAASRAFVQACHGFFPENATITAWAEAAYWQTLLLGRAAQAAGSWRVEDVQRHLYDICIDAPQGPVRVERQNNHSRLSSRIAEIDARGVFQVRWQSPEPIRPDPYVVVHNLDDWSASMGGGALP
UniProt Q9H2X3, sequence (whole entry, looked up): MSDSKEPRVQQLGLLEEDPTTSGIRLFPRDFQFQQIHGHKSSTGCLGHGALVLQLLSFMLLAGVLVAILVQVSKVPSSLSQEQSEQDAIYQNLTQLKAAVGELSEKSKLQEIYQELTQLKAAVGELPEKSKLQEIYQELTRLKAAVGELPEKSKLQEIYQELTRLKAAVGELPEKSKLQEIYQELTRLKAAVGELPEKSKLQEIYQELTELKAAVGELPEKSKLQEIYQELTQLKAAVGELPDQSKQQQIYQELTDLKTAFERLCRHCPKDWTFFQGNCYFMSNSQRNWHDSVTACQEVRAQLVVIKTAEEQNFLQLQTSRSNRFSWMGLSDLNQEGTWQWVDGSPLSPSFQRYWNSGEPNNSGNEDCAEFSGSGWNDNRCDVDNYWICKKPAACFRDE
UniProt Q9ULV8, sequence (whole entry, looked up): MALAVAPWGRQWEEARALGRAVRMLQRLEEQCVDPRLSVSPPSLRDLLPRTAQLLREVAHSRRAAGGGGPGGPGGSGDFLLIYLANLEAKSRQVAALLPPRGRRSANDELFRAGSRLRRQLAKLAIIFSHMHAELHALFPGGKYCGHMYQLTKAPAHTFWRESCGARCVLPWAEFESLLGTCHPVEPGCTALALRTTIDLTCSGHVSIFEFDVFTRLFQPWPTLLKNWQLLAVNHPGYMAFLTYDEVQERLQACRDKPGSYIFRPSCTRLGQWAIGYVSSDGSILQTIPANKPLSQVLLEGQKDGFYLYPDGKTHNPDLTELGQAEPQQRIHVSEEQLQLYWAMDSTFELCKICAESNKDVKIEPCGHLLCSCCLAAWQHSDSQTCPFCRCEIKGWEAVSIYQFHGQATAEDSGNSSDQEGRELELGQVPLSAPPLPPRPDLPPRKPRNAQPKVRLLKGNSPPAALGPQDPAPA
UniProt P10686, sequence (whole entry, looked up): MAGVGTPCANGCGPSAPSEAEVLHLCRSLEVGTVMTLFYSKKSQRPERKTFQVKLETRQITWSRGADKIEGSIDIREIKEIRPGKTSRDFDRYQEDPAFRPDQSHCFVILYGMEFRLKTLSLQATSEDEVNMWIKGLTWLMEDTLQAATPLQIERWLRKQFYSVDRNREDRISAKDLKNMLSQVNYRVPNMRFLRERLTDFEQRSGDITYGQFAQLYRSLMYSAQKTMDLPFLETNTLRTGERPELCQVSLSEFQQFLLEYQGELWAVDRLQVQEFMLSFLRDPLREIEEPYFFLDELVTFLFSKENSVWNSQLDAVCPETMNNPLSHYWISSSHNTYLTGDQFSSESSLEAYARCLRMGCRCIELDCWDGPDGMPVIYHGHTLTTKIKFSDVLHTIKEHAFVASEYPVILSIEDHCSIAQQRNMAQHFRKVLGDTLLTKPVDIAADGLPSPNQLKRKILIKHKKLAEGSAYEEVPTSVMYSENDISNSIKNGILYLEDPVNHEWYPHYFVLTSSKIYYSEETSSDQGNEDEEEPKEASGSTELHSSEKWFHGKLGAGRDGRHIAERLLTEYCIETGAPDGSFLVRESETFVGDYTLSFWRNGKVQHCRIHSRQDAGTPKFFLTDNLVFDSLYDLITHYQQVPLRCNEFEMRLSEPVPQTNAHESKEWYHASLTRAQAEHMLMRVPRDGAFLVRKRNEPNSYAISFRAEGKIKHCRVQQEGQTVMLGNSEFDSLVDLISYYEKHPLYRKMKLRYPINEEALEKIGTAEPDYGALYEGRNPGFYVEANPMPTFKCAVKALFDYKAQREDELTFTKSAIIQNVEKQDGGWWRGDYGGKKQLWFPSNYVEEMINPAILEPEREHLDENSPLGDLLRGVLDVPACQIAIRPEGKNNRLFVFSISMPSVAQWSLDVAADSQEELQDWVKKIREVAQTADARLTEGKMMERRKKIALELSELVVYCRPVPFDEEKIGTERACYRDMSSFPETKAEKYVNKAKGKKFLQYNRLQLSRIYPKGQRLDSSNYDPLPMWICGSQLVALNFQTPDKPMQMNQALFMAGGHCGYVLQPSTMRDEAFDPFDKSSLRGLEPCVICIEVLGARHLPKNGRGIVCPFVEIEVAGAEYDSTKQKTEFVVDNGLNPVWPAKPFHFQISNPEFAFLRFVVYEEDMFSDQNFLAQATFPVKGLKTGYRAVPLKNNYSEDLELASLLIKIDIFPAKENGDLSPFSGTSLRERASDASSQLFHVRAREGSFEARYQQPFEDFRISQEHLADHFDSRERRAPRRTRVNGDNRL
UniProt Q02242, sequence (whole entry, looked up): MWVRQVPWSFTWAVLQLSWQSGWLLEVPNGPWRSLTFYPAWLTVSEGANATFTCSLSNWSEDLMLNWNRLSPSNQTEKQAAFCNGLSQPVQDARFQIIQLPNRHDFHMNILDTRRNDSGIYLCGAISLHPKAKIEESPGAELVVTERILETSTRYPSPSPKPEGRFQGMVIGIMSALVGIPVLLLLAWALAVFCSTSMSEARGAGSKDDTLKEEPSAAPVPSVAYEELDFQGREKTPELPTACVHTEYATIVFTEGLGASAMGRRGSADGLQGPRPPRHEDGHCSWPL
UniProt Q9NQG5, sequence (whole entry, looked up): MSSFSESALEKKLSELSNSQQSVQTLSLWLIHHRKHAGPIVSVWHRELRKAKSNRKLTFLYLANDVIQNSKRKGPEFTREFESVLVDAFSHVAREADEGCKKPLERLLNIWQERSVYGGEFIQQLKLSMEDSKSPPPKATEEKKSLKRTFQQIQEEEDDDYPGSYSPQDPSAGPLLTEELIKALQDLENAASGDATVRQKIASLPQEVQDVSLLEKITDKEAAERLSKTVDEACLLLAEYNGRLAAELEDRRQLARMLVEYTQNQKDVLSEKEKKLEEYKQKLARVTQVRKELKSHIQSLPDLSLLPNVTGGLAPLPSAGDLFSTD
UniProt Q8NHP6, sequence (whole entry, looked up): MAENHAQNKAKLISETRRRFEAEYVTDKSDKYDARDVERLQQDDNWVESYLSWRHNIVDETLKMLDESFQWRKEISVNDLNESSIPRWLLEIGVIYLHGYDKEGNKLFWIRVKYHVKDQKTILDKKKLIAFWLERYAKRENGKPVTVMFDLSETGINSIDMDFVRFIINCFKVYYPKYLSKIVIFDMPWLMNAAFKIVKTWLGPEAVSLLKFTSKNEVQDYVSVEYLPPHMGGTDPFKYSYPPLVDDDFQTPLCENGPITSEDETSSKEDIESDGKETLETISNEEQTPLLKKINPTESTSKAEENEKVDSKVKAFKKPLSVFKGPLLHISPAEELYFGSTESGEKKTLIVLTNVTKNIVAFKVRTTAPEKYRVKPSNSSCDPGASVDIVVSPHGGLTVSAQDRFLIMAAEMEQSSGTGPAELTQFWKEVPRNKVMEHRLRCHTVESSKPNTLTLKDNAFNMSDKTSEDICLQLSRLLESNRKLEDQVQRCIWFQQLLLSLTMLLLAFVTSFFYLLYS

C[C@@H](O)[C@H](NC(=O)[C@@H]1CCCN1C(=O)[C@H](CO)NC(=O)[C@H](Cc1ccc(O)cc1)NC(=O)[C@H](CO)NC(=O)[C@@H]1CCCN1C(=O)[C@H](COP(=O)(O)O)NC(=O)[C@@H](NC(=O)[C@@H]1CCCN1C(=O)[C@H](CO)NC(=O)[C@H](Cc1ccc(O)cc1)NC(=O)[C@H](CO)NC(=O)[C@@H]1CCCN1C(=O)[C@@H](N)CO)[C@@H](C)O)C(=O)N[C@@H](COP(=O)(O)O)C(=O)N1CCC[C@H]1C(=O)N[C@@H](CO)C(=O)N[C@@H](Cc1ccc(O)cc1)C(=O)N[C@@H](CO)C(=O)O
Kd (Regulation of nuclear pre-mRNA domain-containing protein 1B, CID domain (RPRD1B, Homo sapiens, UniProt Q9NQG5); isothermal titration calorimetry; pH 7.5, 25 °C): > 1000 µM

C#CC[C@H](NC(=O)CNC(=O)[C@H](CO)NC(=O)[C@H](CCCCN)NC(=O)[C@H](C)N(C)C(=O)[C@H](C)NC(=O)[C@@H](NC(=O)[C@@H](NC(=O)[C@H](CCCNC(=N)N)NC(=O)[C@H](Cc1c[nH]cn1)NC(=O)[C@@H]1CCCN1C(=O)[C@H](Cc1ccccc1)NC(=O)[C@@H](N)CCSC)C(C)C)[C@@H](C)O)C(=O)O
Kd (Microtubule-associated protein 1 light chain 3 beta (Homo sapiens, UniProt Q9GZQ8); fluorescence polarization): 0.312 ± 0.143 µM

CC[C@H](C)[C@H](NC(=O)[C@@H](N)CCCCN)C(=O)N1CCC[C@H]1C(=O)N[C@@H](Cc1ccc(O)cc1)C(=O)N[C@@H](Cc1ccccc1)C(=O)N[C@@H](Cc1c[nH]cn1)C(=O)N[C@@H](C)C(=O)NCC(=O)NCC(=O)N[C@@H](CO)C(=O)N[C@@H](CCCCN)C(=O)N[C@@H](CS)C(=O)N[C@@H](CO)C(=O)N[C@H](C(=O)N[C@@H](Cc1ccc(O)cc1)C(=O)N1CCC[C@H]1C(=O)N[C@@H](CC(C)C)C(=O)N1CCC[C@H]1C(=O)N[C@@H](CCC(N)=O)C(=O)N1CCC[C@H]1C(=O)N[C@@H](CO)C(=O)O)[C@@H](C)OP(=O)(O)O
Kd (YWHAZ; binding, isothermal titration calorimetry; 37 °C, second site, two-site model, with: phosphorylated PRLR peptide): 2.3 ± 0.2 µM

CSCC[C@H](NC(=O)[C@H](CO)NC(=O)[C@H](CC(C)C)NC(=O)[C@H](CC(=O)O)NC(=O)[C@H](CC(C)C)NC(=O)[C@H](Cc1ccc(OP(=O)(O)O)cc1)NC(=O)[C@H](CCC(=O)O)NC(=O)[C@H](CCC(N)=O)NC(=O)[C@H](CC(N)=O)NC(=O)[C@H](CO)NC(=O)[C@@H](N)[C@@H](C)O)C(N)=O
Kd (1-phosphatidylinositol 4,5-bisphosphate phosphodiesterase gamma-1, C-terminal SH2 domain (Rattus norvegicus, UniProt P10686); C-SH2 domain binding, isothermal titration calorimetry; 25 °C): 1.81 ± 0.688 µM

NCc1cn([C@@H]2[C@@H](OCCn3cc(COCCOCCOCCn4cc(-c5cc(OCCOCCO)c(C#Cc6cc(OCCOCCO)c(C#Cc7cc(OCCOCCO)c(-c8cn(CCOCCOCCOCc9cn(CCO[C@H]%10O[C@H](CO)[C@@H](O)[C@H](O)[C@@H]%10n%10cc(CN)nn%10)nn9)nn8)cc7OCCOCCO)cc6OCCOCCO)cc5OCCOCCO)nn4)nn3)O[C@H](CO)[C@@H](O)[C@@H]2O)nn1
Kd (C-type lectin domain family 4 member M, extracellular domain (CLEC4M, Homo sapiens, UniProt Q9H2X3); binding): 33 ± 11 µM

CC(C)C[C@H](NC(=O)[C@H](CCCNC(=N)N)NC(=O)[C@H](CCC(=O)O)NC(=O)[C@H](CCCCN)NC(=O)[C@H](CCCNC(=N)N)NC(=O)[C@H](CCCCN)NC(=O)[C@]1(C)CCCC=CCCC[C@](C)(NC(=O)[C@H](CC(C)C)NC(=O)[C@H](CO)NC(=O)[C@]2(C)CCCC=CCCC[C@](C)(NC(=O)[C@@H]3CCCN3C(=O)[C@@H](NC(=O)[C@H](CO)NC(=O)c3ccc4c(c3)C(=O)OC43c4ccc(N(C)C)cc4Oc4cc(N(C)C)ccc43)C(C)C)C(=O)N[C@@H](C)C(=O)N[C@@H](CCCNC(=N)N)C(=O)N[C@@H](CCCCN)C(=O)N2)C(=O)N[C@@H](CCCNC(=N)N)C(=O)N[C@@H](Cc2ccccc2)C(=O)N[C@@H](CC(C)C)C(=O)N1)C(=O)O
Kd (Transcription factor MYC2 (MYC2, Arabidopsis thaliana, UniProt Q39204); binding, fluorescence anisotropy; pH 8.0, MYC2 residues 55-259): 0.16 ± 0.06 µM

CC[C@H](C)[C@H](NC(=O)[C@H](CCCCN)NC(=O)[C@H](Cc1ccccc1)NC(=O)[C@H](CCCCNC(=O)[C@H](CC(C)C)NC(=O)[C@@H]1CCCN1C(=O)[C@H](CCCCN)NC(=O)c1ccc(O[C@@H]2O[C@H](CO)[C@H](O)[C@H](O)[C@H]2O)cc1)NC(=O)[C@H](CC(C)C)NC(=O)[C@@H]1CCCN1C(=O)[C@H](CCCCN)NC(=O)c1ccc(O[C@@H]2O[C@H](CO)[C@H](O)[C@H](O)[C@H]2O)cc1)C(N)=O
Kd (lecA (Pseudomonas aeruginosa, UniProt Q05097); isothermal titration calorimetry; pH 7.5, 25 °C, with: 25 mM CaCl2): 0.5 ± 0.2 µM

CC[C@H](C)[C@H](N)C(=O)N[C@@H](CO)C(=O)N[C@@H](Cc1ccc(O)cc1)C(=O)NCC(=O)NCC(=O)N[C@@H](C)C(=O)N[C@@H](CC(=O)O)C(=O)N[C@@H](Cc1ccc(O)cc1)C(=O)N[C@@H](CCCCN)C(=O)O
Kd (Pdcd1 (Mus musculus, UniProt Q02242); binding, MST): 57 µM

COc1ccc2c(c1)c(C(=O)O)c(C)n2CCc1ccc(OC)c(OC)c1
Kd (E3 ubiquitin-protein ligase CBL-C (Homo sapiens, UniProt Q9ULV8); binding, NMR): 1100 µM

CSCC[C@H](NC(=O)[C@H](C)NC(=O)CNC(=O)CCCC[C@@H]1SC[C@@H]2NC(=O)N[C@@H]21)C(=O)N[C@@H](CCCNC(=N)N)C(=O)NCC(=O)N[C@@H](C)C(=O)N[C@@H](CC(C)C)C(=O)N[C@@H](CO)C(=O)N[C@@H](CCC(=O)O)C(=O)NCC(=O)N[C@@H](CCC(N)=O)C(=O)N[C@@H](Cc1ccccc1)C(=O)N[C@@H](Cc1ccc(O)cc1)C(=O)N[C@@H](COP(=O)(O)O)C(=O)N1CCC[C@H]1C(=O)N1CCC[C@H]1C(=O)N[C@@H](CCC(=O)O)C(=O)N[C@@H](COP(=O)(O)O)C(=O)N[C@@H](Cc1ccccc1)C(=O)N[C@@H](C)C(=O)NCC(=O)O
Kd (Motile sperm domain-containing protein 2, MSP domain (MOSPD2, Homo sapiens, UniProt Q8NHP6); binding to FFAT peptide, SPR; pH 7.5, 25 °C): 0.35 ± 0.16 µM

CC(=O)N[C@@H](Cc1ccc(O)cc1)C(=O)N[C@@H](CC(N)=O)C(=O)N1CCC[C@H]1C(=O)N[C@@H](Cc1ccccc1)C(=O)N[C@@H](CCC(=O)O)C(=O)N[C@@H](CCC(=O)O)C(=O)NCC(=O)NCC(N)=O
Kd (EH domain-containing protein 1 (Homo sapiens, UniProt Q9H4M9); binding, ITC): 35.7 µM

CC[C@H](C)[C@@H]1NC(=O)[C@H](CCCNC(=N)N)NC(=O)[C@H](CC(=O)O)NC(=O)[C@H](CC(C)C)NC(=O)[C@H](CCCCN)NC(=O)[C@H](CC(C)C)NC(=O)CNC(=O)[C@H](Cc2ccccc2)NC(=O)[C@@H](NC(=O)CNC(=O)[C@H](CCCCN)NC(=O)[C@H](CO)NC(=O)[C@H](CC(C)C)NC(=O)CN)CSSC[C@@H](C(=O)O)NC(=O)CNC(=O)[C@H](CC(C)C)NC(=O)CNC(=O)[C@H](CO)NC(=O)[C@H](CCSC)NC(=O)[C@H](CO)NC(=O)CNC1=O
Kd (Aliphatic amidase expression-regulating protein (amiC, Pseudomonas aeruginosa, UniProt P27017); binding, microscale thermophoresis; pH 7.5, 25 °C): 2 ± 0.3 µM

CC[C@H](C)[C@H](NC(=O)[C@H](CCCNC(=N)N)NC(=O)[C@H](CCCCN)NC(=O)[C@@H](NC(=O)[C@H](C)NC(=O)[C@H](CCCNC(=N)N)NC(=O)[C@H](CCC(N)=O)NC(=O)[C@H](CO)NC(=O)[C@H](CCCCN)NC(=O)[C@H](CC(N)=O)NC(=O)[C@@H](N)CCCNC(=N)N)[C@@H](C)O)C(=O)N[C@@H](CO)C(=O)N[C@@H](Cc1c[nH]cn1)C(=O)N[C@@H](CCSC)C(=O)N1CCC[C@H]1C(=O)N[C@@H](CO)C(=O)N[C@@H](CCCNC(=N)N)C(=O)N1CCC[C@H]1C(=O)N[C@@H](CCC(=O)O)C(=O)N[C@@H](CC(C)C)C(=O)N[C@@H](CO)C(=O)N[C@@H](C)C(=O)N[C@H](C(=O)N[C@@H](C)C(=O)N[C@H](C(=O)N[C@@H](CC(=O)O)C(=O)N[C@@H](CC(C)C)C(=O)N[C@@H](CCCNC(=N)N)C(=O)N[C@@H](CCCCN)C(=O)N[C@@H](CC(=O)O)C(=O)N[C@@H](CCCCN)C(=O)N[C@@H](C)C(=O)N[C@@H](CCCCN)C(=O)N[C@@H](COP(=O)(O)O)C(=O)N[C@@H](CS)C(=O)OC)[C@@H](C)O)C(C)C
Kd (YWHAZ; cell-free assay, FP; pH 7.5): 3.39 µM

CC[C@H](C)[C@H](NC(=O)[C@@H](NC(=O)[C@H](Cc1c[nH]c2ccccc12)NC(=O)[C@H](CCC(=O)O)NC(=O)[C@H](CO)NC(=S)Nc1ccc2c(c1)C(=O)OC21c2ccc(O)cc2Oc2cc(O)ccc21)C(C)C)C(=O)N[C@H](C(=O)N[C@H](C(=O)N1CCC[C@H]1C(=O)N[C@@H](Cc1ccccc1)C(=O)N[C@@H](CC(C)C)C(=O)N[C@H](C(=O)N[C@@H](C)C(=O)N[C@@H](CC(C)C)C(=O)O)[C@@H](C)O)[C@@H](C)CC)C(C)C
Kd (Rgg transcriptional regulator (Streptococcus pneumoniae, UniProt A0A0E7KI02); binder, fluorescence polarization; 20 min, pH 7.4, 20 °C, fluorescein-labelled peptide): 3.3 ± 0.2 µM

For quick reference, copied from above:
CC(=O)N[C@@H](Cc1ccc(O)cc1)C(=O)N[C@@H](CC(N)=O)C(=O)N1CCC[C@H]1C(=O)N[C@@H](Cc1ccccc1)C(=O)N[C@@H](CCC(=O)O)C(=O)N[C@@H](CCC(=O)O)C(=O)NCC(=O)NCC(N)=O
Kd (EH domain-containing protein 1 (Homo sapiens, UniProt Q9H4M9); binding, ITC): 35.7 µM
